Assay results gathered from unrelated publications.
Lines come from different studies, so protocols differ. Values joined by “and” are separate records of one study, mostly repeats; a detail may differ. Numbers after ± are the reported error.
CRBN/Zinc finger protein Aiolos: CRBN/Zinc finger protein Aiolos (Homo sapiens, UniProt Q96SW2+Q9UKT9)
PNLIP: Pancreatic triacylglycerol lipase (PNLIP, Homo sapiens, UniProt P16233)
UniProt P16233, sequence (whole entry, looked up): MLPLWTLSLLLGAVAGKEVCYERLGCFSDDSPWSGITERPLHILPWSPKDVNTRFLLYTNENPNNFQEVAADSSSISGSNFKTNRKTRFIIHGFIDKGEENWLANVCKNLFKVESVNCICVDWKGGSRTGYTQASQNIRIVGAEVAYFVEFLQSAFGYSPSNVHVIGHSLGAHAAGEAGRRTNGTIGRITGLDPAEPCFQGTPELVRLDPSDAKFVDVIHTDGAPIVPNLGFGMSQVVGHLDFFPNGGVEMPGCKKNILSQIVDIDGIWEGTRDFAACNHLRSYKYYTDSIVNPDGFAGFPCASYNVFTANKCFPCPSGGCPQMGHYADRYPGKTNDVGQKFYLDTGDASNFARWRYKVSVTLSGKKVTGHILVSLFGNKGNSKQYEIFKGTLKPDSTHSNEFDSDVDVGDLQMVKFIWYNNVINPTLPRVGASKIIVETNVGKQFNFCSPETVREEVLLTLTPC
CTSS: Cathepsin S (CTSS, Homo sapiens, UniProt P25774)
UniProt P25774, sequence (whole entry, looked up): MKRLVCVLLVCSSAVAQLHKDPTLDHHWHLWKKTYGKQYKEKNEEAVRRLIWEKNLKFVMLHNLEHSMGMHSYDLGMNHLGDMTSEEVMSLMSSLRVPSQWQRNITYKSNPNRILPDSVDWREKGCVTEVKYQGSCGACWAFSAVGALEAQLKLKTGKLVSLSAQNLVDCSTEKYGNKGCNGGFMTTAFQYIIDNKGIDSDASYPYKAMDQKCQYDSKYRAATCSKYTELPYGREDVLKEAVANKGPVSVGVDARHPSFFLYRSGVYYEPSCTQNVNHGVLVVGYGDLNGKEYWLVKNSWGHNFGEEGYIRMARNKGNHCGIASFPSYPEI
MAPK9: Mitogen-activated protein kinase 9 (MAPK9, Homo sapiens, UniProt P45984)
IL1RL2: Interleukin-1 receptor-like 2 (IL1RL2, Homo sapiens, UniProt Q9HB29)
UniProt Q9HB29, sequence (whole entry, looked up): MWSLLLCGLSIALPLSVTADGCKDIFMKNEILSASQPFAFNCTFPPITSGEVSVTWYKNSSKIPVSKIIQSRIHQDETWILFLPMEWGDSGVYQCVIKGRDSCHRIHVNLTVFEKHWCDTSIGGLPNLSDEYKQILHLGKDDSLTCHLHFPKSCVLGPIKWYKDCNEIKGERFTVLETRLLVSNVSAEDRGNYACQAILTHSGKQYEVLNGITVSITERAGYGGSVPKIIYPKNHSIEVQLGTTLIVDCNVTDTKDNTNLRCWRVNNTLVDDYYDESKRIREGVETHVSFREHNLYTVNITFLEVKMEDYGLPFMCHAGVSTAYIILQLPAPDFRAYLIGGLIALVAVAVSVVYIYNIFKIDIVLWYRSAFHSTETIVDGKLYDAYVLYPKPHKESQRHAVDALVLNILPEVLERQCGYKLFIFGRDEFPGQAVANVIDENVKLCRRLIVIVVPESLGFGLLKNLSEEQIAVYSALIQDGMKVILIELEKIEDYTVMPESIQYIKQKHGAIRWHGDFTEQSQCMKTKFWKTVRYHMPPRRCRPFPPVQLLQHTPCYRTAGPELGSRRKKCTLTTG
UniProt P42336, sequence (whole entry, unmodified, looked up): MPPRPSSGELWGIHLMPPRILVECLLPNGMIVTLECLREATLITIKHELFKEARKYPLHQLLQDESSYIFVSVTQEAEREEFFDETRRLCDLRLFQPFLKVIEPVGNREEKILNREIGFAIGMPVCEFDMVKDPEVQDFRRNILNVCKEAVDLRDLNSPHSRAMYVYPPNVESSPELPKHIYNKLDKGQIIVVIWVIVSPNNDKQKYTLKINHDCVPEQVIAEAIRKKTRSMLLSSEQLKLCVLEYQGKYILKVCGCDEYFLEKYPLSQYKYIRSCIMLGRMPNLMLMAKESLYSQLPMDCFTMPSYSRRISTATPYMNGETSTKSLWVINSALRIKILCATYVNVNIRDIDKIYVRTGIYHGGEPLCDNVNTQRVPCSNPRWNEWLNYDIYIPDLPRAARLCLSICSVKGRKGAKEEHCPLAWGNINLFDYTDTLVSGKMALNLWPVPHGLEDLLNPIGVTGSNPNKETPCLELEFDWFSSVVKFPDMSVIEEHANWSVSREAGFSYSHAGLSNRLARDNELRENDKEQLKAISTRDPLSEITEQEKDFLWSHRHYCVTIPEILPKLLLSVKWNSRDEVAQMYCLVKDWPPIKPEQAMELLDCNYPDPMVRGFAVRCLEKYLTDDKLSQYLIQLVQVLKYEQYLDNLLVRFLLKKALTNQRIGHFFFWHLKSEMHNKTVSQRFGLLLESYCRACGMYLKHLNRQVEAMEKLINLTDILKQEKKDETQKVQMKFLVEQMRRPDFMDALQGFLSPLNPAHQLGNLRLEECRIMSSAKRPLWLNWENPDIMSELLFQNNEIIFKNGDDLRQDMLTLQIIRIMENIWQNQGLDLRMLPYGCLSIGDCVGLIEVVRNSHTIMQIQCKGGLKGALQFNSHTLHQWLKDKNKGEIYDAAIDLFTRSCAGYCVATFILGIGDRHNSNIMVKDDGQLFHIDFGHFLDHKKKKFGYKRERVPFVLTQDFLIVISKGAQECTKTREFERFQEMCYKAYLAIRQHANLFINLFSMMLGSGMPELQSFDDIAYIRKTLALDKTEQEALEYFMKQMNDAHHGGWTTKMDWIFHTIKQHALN
UniProt P08246, sequence (whole entry, looked up): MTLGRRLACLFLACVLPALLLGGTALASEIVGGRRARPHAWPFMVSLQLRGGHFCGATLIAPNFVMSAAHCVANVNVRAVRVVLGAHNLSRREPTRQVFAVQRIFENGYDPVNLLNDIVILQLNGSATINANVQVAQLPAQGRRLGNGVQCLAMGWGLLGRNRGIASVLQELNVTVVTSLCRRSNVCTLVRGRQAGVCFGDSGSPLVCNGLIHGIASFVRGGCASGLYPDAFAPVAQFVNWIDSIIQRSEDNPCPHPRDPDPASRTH
UniProt P36969, sequence (whole entry, looked up): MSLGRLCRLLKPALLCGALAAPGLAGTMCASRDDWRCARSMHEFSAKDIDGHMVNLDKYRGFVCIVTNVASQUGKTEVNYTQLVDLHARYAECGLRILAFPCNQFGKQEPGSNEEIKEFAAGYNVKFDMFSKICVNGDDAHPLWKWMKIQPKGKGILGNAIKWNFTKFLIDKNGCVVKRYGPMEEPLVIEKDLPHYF
UniProt P45983, sequence (whole entry, looked up): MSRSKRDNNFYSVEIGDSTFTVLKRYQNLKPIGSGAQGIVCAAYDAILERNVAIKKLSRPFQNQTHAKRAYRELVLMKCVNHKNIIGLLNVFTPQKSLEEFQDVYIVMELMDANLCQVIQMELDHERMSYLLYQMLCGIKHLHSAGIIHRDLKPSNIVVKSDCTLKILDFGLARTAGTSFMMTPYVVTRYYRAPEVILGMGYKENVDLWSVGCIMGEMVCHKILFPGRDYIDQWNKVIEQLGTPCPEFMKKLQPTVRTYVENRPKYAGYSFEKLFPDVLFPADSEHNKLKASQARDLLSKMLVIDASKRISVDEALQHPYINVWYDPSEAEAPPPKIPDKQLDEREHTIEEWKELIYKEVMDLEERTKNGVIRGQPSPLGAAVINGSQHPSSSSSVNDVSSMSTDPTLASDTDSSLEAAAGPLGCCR
UniProt P03070, sequence (whole entry, looked up): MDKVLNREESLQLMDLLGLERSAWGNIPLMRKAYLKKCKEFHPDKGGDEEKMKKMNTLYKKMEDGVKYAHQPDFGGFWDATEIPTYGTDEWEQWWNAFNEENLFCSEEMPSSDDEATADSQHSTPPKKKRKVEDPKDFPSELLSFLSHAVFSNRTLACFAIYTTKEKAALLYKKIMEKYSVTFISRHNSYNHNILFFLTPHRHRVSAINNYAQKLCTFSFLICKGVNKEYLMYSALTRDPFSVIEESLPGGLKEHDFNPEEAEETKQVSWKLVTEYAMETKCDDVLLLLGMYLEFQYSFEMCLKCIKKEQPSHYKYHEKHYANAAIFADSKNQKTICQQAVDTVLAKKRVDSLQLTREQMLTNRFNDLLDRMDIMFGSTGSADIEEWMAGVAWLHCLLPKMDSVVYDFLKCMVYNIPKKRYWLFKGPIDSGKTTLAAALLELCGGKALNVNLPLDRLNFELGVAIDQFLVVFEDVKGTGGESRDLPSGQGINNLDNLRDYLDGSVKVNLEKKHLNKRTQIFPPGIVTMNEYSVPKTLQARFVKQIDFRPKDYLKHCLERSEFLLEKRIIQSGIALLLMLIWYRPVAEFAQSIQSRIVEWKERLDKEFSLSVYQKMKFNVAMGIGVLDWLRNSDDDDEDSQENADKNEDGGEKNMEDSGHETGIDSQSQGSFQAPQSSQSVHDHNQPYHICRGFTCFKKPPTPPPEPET

For COc1cc(Nc2nc(C)cc(-c3cnn4nc(OC)ccc34)n2)cc(C(F)(F)F)c1, the remaining activity was 100% (PIK3CA (Homo sapiens, UniProt P42336); inhibitor; 1 µM; reference: control).
CC(C)C[C@H](NC(=O)[C@@H](CCCCNC(=O)[C@@H](Cc1ccccc1)NC(=O)CCCCCNC(=O)CN1CCN(CC(=O)O)CCN(CC(=O)O)CCN(CC(=O)O)CC1)NC(=O)[C@H](Cc1ccc(O)cc1)NC(=O)[C@H](CO)NC(=O)[C@H](Cc1c[nH]c2ccccc12)NC(=O)[C@H](Cc1c[nH]cn1)NC(=O)[C@@H]1CCC(=O)N1)C(=O)N[C@@H](CCCNC(=N)N)C(=O)N1CCC[C@H]1C(=O)NCC(N)=O [indium-111 labelled] has a tissue uptake of 0.16 ± 0.1 %ID/g (female athymic nude mice, muscle; intravenous, 0.037 MBq, 0.5 h).
With O=C1CCC(N2C(=O)c3cccc4c(Cc5cnn(C6CCN(C(=O)C7(O)CC7)CC6)c5)ccc2c34)C(=O)N1 (centres unmarked) the remaining activity was 29% (CRBN/Zinc finger protein Aiolos; protein level, degrader, western blot; NCI-H929; 1 nM, 4 h).
CC(C)=CCC/C(C)=C/CC/C(C)=C/CC/C(C)=C/CC1=C(C)C(=O)c2ccccc2C1=O gave a remaining activity of 18.5% (PNLIP; enzyme activity, inhibitor, fluorescence; 50 µM).
The remaining activity of COC(=O)CN1CCCc2cc3cc(C(=O)NC(Cc4cccc(Cl)c4)C(=O)NCC=CS(=O)(=O)c4ccccc4)c(=O)oc3cc21 (centres unmarked) is reported as 6% (CTSS; inhibitor; 5 µM, 60 min, together with: Z-Phe-Arg-AMC; reference: uninhibited control).
With O=C1CCC(N2C(=O)c3cccc4c(Cc5ccc(CN6CCNCC6)nc5)ccc2c34)C(=O)N1 (centres unmarked) the remaining activity was 55.7% (CRBN/Zinc finger protein Aiolos; protein level, degrader, western blot; NCI-H929; 10 nM, 4 h).
O=c1c(-c2ccc(Cl)c(CN3CCOCC3)c2)coc2cc(O)ccc12 gave a remaining activity of 100% (Phosphatidylinositol 4,5-bisphosphate 3-kinase catalytic subunit alpha isoform, with p85 (PIK3CA, Homo sapiens, UniProt P42336, E542K); enzyme activity, inhibitor; 1 µM).
Cc1ncsc1-c1ccc(C(C)NC(=O)C2CC(O)CN2C(=O)C(NC(=O)CCCCCCCCCCN2CCCC(Nc3ncc(Cl)c(Nc4ccccc4S(=O)(=O)C(C)C)n3)C2)C(C)(C)C)cc1 (centres unmarked) — result for “log2 fold change”: -1.09 (22Rv1; RNA-seq, refers to: MED9 mRNA; concentration not given; reference: DMSO).
O=C1CCC(N2C(=O)c3cccc4c(Cc5cnn(C6CCN(C(=O)CS)CC6)c5)ccc2c34)C(=O)N1 (centres unmarked) has a remaining activity of 102% (CRBN/Zinc finger protein Aiolos; protein level, degrader, western blot; NCI-H929; 1 nM, 4 h).
The remaining activity of COc1ccccc1-c1ccncc1C(=O)Nc1nnc(OCc2ccc(Cl)cc2)s1 is reported as 26% (DNA polymerase theta, helicase domain (POLQ, Homo sapiens, UniProt O75417); ATPase activity, ADP-Glo; 0.24 µM; reference: 0 µM cpd).
Cc1cc(NC(=O)c2cccc(N)c2)ccc1Nc1nccc(-c2cccnc2)n1 has a remaining activity of 0.0264 (MAPK9; enzyme activity, inhibitor; 133.3 µM, unit not given; reference: vehicle).
O=C(N/N=C/c1ccc2c(ccc[n+]2Cc2ccccc2)c1)c1cccc(C(=O)N/N=C/c2ccc3c(ccc[n+]3Cc3ccccc3)c2)c1 has a ΔTm of 1.6 ± 0.1 °C (hp2 hairpin duplex DNA; FRET melting; 1 µM).
N#Cc1cnc2sc(C(=O)O)cc2c1N1CCc2[nH]nc(C(=O)N[C@@H](CC(=O)NCCOCCN3CCOCC3)c3cccc(Br)c3)c2C1 gave a remaining activity of 99.8% (IL1RL2; SEAP reporter gene, antagonist; HEK-Blue IL-36R cells; 3.7 µM, 6 h, together with: IL-36β 0.003 ng/mL; reference: untreated).
COC1CN([C@H]2CC[C@H]([C@@]3(C)Oc4c(Cl)cc(C(=O)NCc5c(SC)cc(C)[nH]c5=O)c(C)c4O3)CC2)C1: “log2 fold change” 4.56 (RNA-seq, refers to: NDST3; human, whole blood; dose not given, 24 h; reference: pretreatment baseline).
COC(=O)c1cc2cc3c(cc2oc1=O)N(CC(=O)NC(Cc1ccc(C)cc1)C(=O)NCC=CS(=O)(=O)c1ccccc1)CCC3 (centres unmarked) has a remaining activity of 8% (CTSS; inhibitor; 5 µM, 60 min, together with: Z-Phe-Arg-AMC; reference: uninhibited control).
CO[C@@H]1[C@@H](OC(=O)c2ccc(C)[nH]2)[C@@H](O)[C@H](Oc2ccc3c(O)c(NC(=O)c4c[nH]c(C(=O)Nc5c(O)c6ccc(O[C@@H]7OC(C)(C)[C@H](OC)[C@@H](OC(=O)c8ccc(C)[nH]8)[C@H]7O)c(C)c6oc5=O)c4C)c(=O)oc3c2C)OC1(C)C gave a remaining activity of 1% (Large T antigen (Simian virus 40, UniProt P03070); fork unwinding; 250 µM).
N#C[C@@H]1CC(F)(F)CN1C(=O)CNC(=O)c1ccnc2c(NC(=O)[C@H](CCCCNC(=O)CCOCCOCCOCCOCCOCCOCCNC(=O)CN3CCN(CC(=O)[O-])CCN(CC(=O)[O-])CCN(CC(=O)[O-])CC3)NC(=O)CCCc3ccc(I)cc3)cccc12.[177Lu+3] has a tracer uptake of 0.06 %ID/g (U-87 MG tumour model; host not given, stomach; 96 h, tumour-bearing).
The remaining activity of C[C@](C(=O)NC1CCOCC1)(c1cncnc1)N(C(=O)[C@H](F)Cl)c1ccc(OC(F)(F)Cl)cc1 is reported as 103% (Neutrophil elastase (ELANE, Homo sapiens, UniProt P08246); enzyme activity, inhibitor; 10 µM).
With O=C1c2cccc(Cl)c2C(=O)c2c(Cl)cccc21 the remaining activity was 11.2% (PNLIP; enzyme activity, inhibitor, fluorescence; 50 µM).
With CC(C)(O)C(=O)N1CCC(n2cc(Cc3ccc4c5c(cccc35)C(=O)N4C3CCC(=O)NC3=O)cn2)CC1 (centres unmarked) the remaining activity was 6.33% (CRBN/Zinc finger protein Aiolos; protein level, degrader, western blot; NCI-H929; 10 nM, 4 h).
The activity concentration of CC(C)C[C@H](NC(=O)[C@H](Cc1ccc(O)cc1)NC(=O)[C@@H](CCCNC(=N)N)NC(=O)[C@@H](CO)NC(=O)[C@H](Cc1ccccc1)NC(=O)[C@H](CC1CCCCC1)NC(=O)[C@H](CC(=O)O)NC(=O)CN1CCN(CC(=O)O)CCN(CC(=O)O)CCN(CC(=O)O)CC1)C(=O)N[C@@H](Cc1c[nH]c2ccccc12)C(=O)N[C@@H](CO)C(=O)O [copper-64 labelled] is reported as 888 Bq/mL and 1850 Bq/mL and 1660 Bq/mL and 2160 Bq/mL and 1830 Bq/mL and 2000 Bq/mL (human, lower large intestine; concentration not given, 1 h).
The remaining activity of O=C1CCC(N2C(=O)c3cccc4c(Cc5cnn(C6CCN(C(=O)C7(O)CCC7)CC6)c5)ccc2c34)C(=O)N1 (centres unmarked) is reported as 18.6% (CRBN/Zinc finger protein Aiolos; protein level, degrader, western blot; NCI-H929; 1 nM, 4 h).
With CC(C)[C@@H]1NC(=O)[C@H](Cc2ccccc2)NC(=O)CSC[C@@H](C(N)=O)NC(=O)[C@H](CCC(=O)O)NC(=O)[C@H](CO)NC(=O)[C@H](Cc2c[nH]c3cccc(Cl)c23)NC(=O)[C@H](C2CCCCC2)NC(=O)[C@H](C(C)C)NC(=O)[C@H](Cc2ccc(O)cc2)NC(=O)[C@H](CC(=O)O)NC(=O)[C@H](Cc2c[nH]c3ccccc23)NC(=O)[C@H](Cc2ccc(N)nc2)NC(=O)[C@H](Cc2c[nH]c3ccc(Cl)cc23)NC(=O)[C@H](CCC(=O)O)NC1=O the remaining activity was 96.5% (IL1RL2; reporter gene (SEAP), inhibitor, HEK-Blue IL-36R reporter; HEK-Blue IL-36R cells; 0.41 µM, 6 h, together with: IL-36β 100 ng/mL).
The remaining activity of C#CCOC(=O)[C@@]1(C)C=C(C(=O)Nc2cccc(C(=O)Nc3ccc(C)c(Nc4nccc(-c5cccnc5)n4)c3)c2)C(=O)CC1 is reported as 0.997 (MAPK9; enzyme activity, inhibitor; 2.788e-05 µM, unit not given; reference: vehicle).
O=C1CCC(N2C(=O)c3cccc4c(Cc5cnn(C6CCN(C(=O)CO)CC6)c5)ccc2c34)C(=O)N1 (centres unmarked) has a remaining activity of 19% (CRBN/Zinc finger protein Aiolos; protein level, degrader, western blot; NCI-H929; 10 nM, 4 h).
O=C1c2cccc(O)c2C(=O)c2c(O)cccc21 has a remaining activity of 6.75% (PNLIP; enzyme activity, inhibitor, fluorescence; 50 µM).
For O=C1CCC(N2C(=O)c3cccc4c(Cn5cc(C6CCNCC6)nn5)ccc2c34)C(=O)N1 (centres unmarked), the remaining activity was 42.7% (CRBN/Zinc finger protein Aiolos; protein level, degrader, western blot; NCI-H929; 10 nM, 4 h).
The remaining activity of COC(=O)[C@]1(C(C)C)C=C(C(=O)Nc2cccc(C(=O)Nc3ccc(Nc4nccc(-c5cccnc5)n4)c(C)c3)c2)C(=O)CC1 is reported as 0.655 (MAPK8 (Homo sapiens, UniProt P45983); kinase activity, inhibitor; 0.1829 µM, unit not given, together with: 10 mM glutathione; reference: no inhibitor).
The remaining activity of O=C(O)c1cc(O)c2c(c1)C(=O)c1cccc(O)c1C2=O is reported as 7.85% (PNLIP; enzyme activity, inhibitor, fluorescence; 50 µM).
C[n+]1ccc(/C=N/NC(=O)c2cccc(C(=O)N/N=C/c3cc[n+](C)c4ccccc34)n2)c2ccccc21 has a ΔTm of 2.6 ± 1.1 °C (hp2 hairpin duplex DNA; FRET melting; 1 µM).
For COC(=O)[C@@]1(C)C=C(C(=O)Nc2cccc(C(=O)Nc3ccc(Nc4nccc(-c5cccnc5)n4)c(C)c3)c2)C(=O)CC1, the remaining activity was 0.983 (MAPK9; enzyme activity, inhibitor; 0.0007527 µM, unit not given; reference: vehicle).
Cc1ccc2[c](c1)[Au-]([Cl])([Cl])[n+]1ccccc1-2 has a remaining activity of 61.5% (GPX4 (Homo sapiens, UniProt P36969); inhibitor, GR-coupled NADPH; up to 36.3 µM, post-incubation, together with: enzyme 100 nM).

Some of these lines once more:
CC(C)=CCC/C(C)=C/CC/C(C)=C/CC/C(C)=C/CC1=C(C)C(=O)c2ccccc2C1=O gave a remaining activity of 18.5% (PNLIP; enzyme activity, inhibitor, fluorescence; 50 µM).
With O=C1CCC(N2C(=O)c3cccc4c(Cc5ccc(CN6CCNCC6)nc5)ccc2c34)C(=O)N1 (centres unmarked) the remaining activity was 55.7% (CRBN/Zinc finger protein Aiolos; protein level, degrader, western blot; NCI-H929; 10 nM, 4 h).
O=C1CCC(N2C(=O)c3cccc4c(Cc5cnn(C6CCN(C(=O)CS)CC6)c5)ccc2c34)C(=O)N1 (centres unmarked) has a remaining activity of 102% (CRBN/Zinc finger protein Aiolos; protein level, degrader, western blot; NCI-H929; 1 nM, 4 h).
